Measured values pooled from the literature.
Each line is one published result; not all experiments were run side by side. “And” joins repeats or separate records; there may be more than shown. ± marks the error that the study gave.

SMILES	assay	test system	setting	how to read	endpoint	value
CC1Cc2ccccc2N1C(=O)CN1CCN(Cc2ccccc2)CC1 (stereo not shown)	–	female NMRI mice, whole blood	intraperitoneal, 10 mg/kg free base, 15 min	relative to: brain over blood	brain to blood ratio	9.01 and 10
Cc1nn(-c2nc3c(F)cc(F)cc3s2)c(O)c1C(c1ccc(C(F)(F)F)cc1)c1c(C)nn(-c2nc3c(F)cc(F)cc3s2)c1O	–	ICR mouse	oral, 50 mg/kg, 2.00 h, mean, abnormal animals excluded	–	plasma concentration	31300 ng/mL
N=C(N)NCCC[C@@H]1NC(=O)[C@H](CO)NC(=O)[C@@H](NC(=O)[C@H](CO)NC(=O)[C@H](CO)NC(=O)[C@H](Cc2c[nH]c3ccccc23)NC(=O)CNC(=O)[C@H](CO)NC(=O)[C@@H](N)Cc2c[nH]c3ccccc23)CSSC[C@@H](C(=O)NCC(=O)O)NC(=O)[C@H](CO)NC1=O	–	patients, plasma	intravenous, 5 mg/kg, thrice weekly, mean	–	Cmax	2480 ng/mL
C=C(NC(=O)c1csc(-c2nc3c(cc2O)-c2nc(cs2)C(=O)NC(C(C)O)C(=O)NC(=C(C)OC)c2nc(cs2)C(=O)NC2c4nc(cs4)C(=O)NC(COC(=O)c4c5c6c(cccc6n4O)COC(=O)C(OC4CC(C)(O)C(N(C)C)C(C)O4)C2OC5)c2nc-3cs2)n1)C(N)=O (stereo not shown)	–	ICR mice, Streptococcus pneumoniae ATCC 49169 infected, immunocompromised, blood	intravenous, 16 mg/kg/day twice daily	–	Tmax	6.08 h
CCCC[C@H](OC(C)=O)c1ccccc1C(=O)O	–	Sprague-Dawley rats, both sexes, whole blood	intravenous, 1.25 mg/kg single dose	–	Tmax	0.017 h
C[C@@H](C(=O)O)c1ccc(-c2ccccc2)c(F)c1	HPLC	reference solution	concentration not given, 12 h, room temperature, solution stability	–	peak area change	≤ 2%
CCCCN1C(=O)c2cccc3c(NCCCCN4CCOCC4)ccc(c23)C1=O	–	toluene	–	–	fluorescence lifetime	8.2 ns
CNc1cc(N)c(C(N)=O)cn1	–	Han Wistar rats, male, plasma	oral, 30 mg/kg, 8.00 h	–	concentration at time	1620 nM
O=C(Nc1cccc(CO)c1)c1cc(-c2ccccc2)n(-c2ccccc2)n1	–	rat liver microsomes	4 h	–	depletion	< 30%
N#C[C@@H]1CC(F)(F)CN1C(=O)CNC(=O)c1ccnc2c(NC(=O)[C@H](CCCCNC(=O)CCOCCOCCOCCOCCOCCOCCNC(=O)CN3CCN(CC(=O)[O-])CCN(CC(=O)[O-])CCN(CC(=O)[O-])CC3)NC(=O)CCCc3ccc(I)cc3)cccc12.[177Lu+3]	–	mouse, U-87 MG tumour xenograft, kidneys	24 h	–	tissue uptake	3.99 ± 1.12 %ID/g
CSCC[C@H](N)C(=O)N[C@@H](CO)C(=O)N[C@H](C(=O)N[C@@H](C)C(=O)NCC(=O)N[C@@H](CC(C)C)C(=O)N[C@@H](CCCCN)C(=O)N[C@@H](CCCCN)C(=O)N[C@@H](CCC(N)=O)C(=O)N[C@@H](Cc1c[nH]c2ccccc12)C(=O)N[C@@H](Cc1ccc(O)cc1)C(=O)N[C@@H](CCCCN)C(=O)N[C@@H](C)C(=O)N[C@@H](CO)C(=O)N[C@@H](CCC(N)=O)C(=O)N[C@@H](CC(C)C)C(=O)N[C@H](C(=O)N[C@@H](CO)C(=O)N[C@@H](CCC(=O)O)C(=O)N[C@@H](CCCCN)C(=O)N[C@H](C(=O)NCC(=O)NCC(=O)N[C@@H](C)C(N)=O)C(C)C)C(C)C)C(C)C	circular dichroism titration	25% DOPS/75% DOPC liposomes	50 µM, pH 7.4, 20 °C	–	ΔG of binding	-6.4 kcal/mol
C/C(N)=N/C(=N\S(=O)(=O)c1ccc(C(F)(F)F)cc1)N1C[C@H](c2ccccc2)C(c2ccc(Cl)cc2)=N1	–	C57BL/6 mouse, muscle	intravenous, 10 mg/kg	–	Tmax	2 h
CN1CCC[C@]1(C)/C=C/S(=O)(=O)NC(=O)Nc1c2c(cc3c1CCC3)CCC2	item: gastrointestinal disorders	human	oral, 100 mg twice daily, 14 days, multiple ascending dose	–	subjects with adverse event	0%
CCC1CNC(CC)CN(C(C(=O)[O-])c2ccc(C(=O)[O-])cc2)C(CC)CN(CC(=O)[O-])C(CC)CN1.[Mn+2] (stereo not shown)	ICP-MS	BALB/c mouse, spleen	intravenous, 0.05 mmol/kg, 1440 min, without anaesthesia	–	Mn content	0.43 ± 0.13 µg/g
O=C(Nc1cnccc1-c1ccc([18F])cc1)c1ccnc(NC(=O)C2CC2)c1	–	mice, transgenic, GSK-3β, early-stage, skin	intravenous, dose not given, 120 min	–	SUV	0.11
CC(C)C[C@@H]1NC(=O)[C@H](CCCCN)NC(=O)CNC(=O)[C@H]2CCCN2C(=O)[C@H](CCCCN)NC(=O)[C@H](CC(C)C)NC(=O)[C@H](CCCCN)NC(=O)C2CCC=CCCCC(NC(=O)[C@H](CCCCN)NC1=O)C(=O)N[C@@H](CCCCN)C(=O)NC(C(N)=O)CCCC=CCCC(N)C(=O)N[C@@H](CCCCN)C(=O)N2 (stereo partly shown)	RP-HPLC C18	–	hydrophobicity	–	retention time	14.3 min
COc1ccc(C(N)=O)cn1	–	Han Wistar rats, male, plasma	oral, 30 mg/kg, 4.00 h	–	concentration at time	3810 nM
CC(C(=O)O)n1nc(Cn2cc3cc(OCC[18F])c(Cl)cc3n2)c2ccccc2c1=O (racemic)	–	rat, blood	2 h	–	tracer uptake	0.5 %ID/g
COCC1CN(C2CCN(c3cc(OC)c(Nc4ncc(Br)c(Nc5ccc6c(c5P(C)(C)=O)OCCO6)n4)cc3C)CC2)C1	–	EGFR-mutant NSCLC patients, plasma	oral, 60 mg single dose, geometric mean	–	AUC(0-inf)	13400 ng·h/mL
O=C(NS(=O)(=O)c1cccs1)c1cc2ccccc2n1Cc1ccc(Br)c2ccccc12	–	KM mouse, chronic hyperuricaemia model	dose not given, day 30	–	body weight	40.8 g and 38 g and 41.4 g and 40.2 g and 40 g and 39.2 g
O=S(=O)(NCc1ccncc1)c1ccc(C2CCCCC2)cc1	–	wild-type littermate mouse	0.3 mg/kg	relative to: vehicle	swim speed change	17 ± 3 cm/s
O=C(O)CN1CCN(CC(=O)O)CCN(CC(O)CN(CC(O)CN2CCN(CC(=O)O)CCN(CC(=O)O)CCN(CC(=O)O)CC2)C[C@H](O)[C@@H](O)[C@H](O)[C@H](O)CO)CCN(CC(=O)O)CC1 (stereo partly shown)	pH-potentiometry	0.15 M NaCl	25 °C	–	log K ZnL	18

SMILES	assay	test system	setting	how to read	endpoint	value
CC(C)[C@H](NC(=O)[C@H](Cc1c[nH]c2ccccc12)NC(=O)[C@H](CCCNC(=N)N)NC(=O)[C@H](CCCNC(=N)N)NC(=O)[C@@H](NC(=O)[C@@H](NC(=O)[C@H](CCCNC(=N)N)NC(=O)[C@@H](NC(=O)[C@@H](NC(=O)[C@H](CCCNC(=N)N)NC(=O)[C@H](CCCNC(=N)N)NC(=O)[C@@H](NC(=O)[C@H](Cc1c[nH]c2ccccc12)NC(=O)[C@H](CCCNC(=N)N)NC(=O)[C@H](CCCNC(=N)N)NC(=O)[C@@H](NC(=O)[C@H](CCCNC(=N)N)NC(=O)[C@H](CCCNC(=N)N)NC(=O)[C@@H](NC(=O)[C@H](Cc1c[nH]c2ccccc12)NC(=O)[C@H](CCCNC(=N)N)NC(=O)[C@@H](N)CCCNC(=N)N)C(C)C)C(C)C)C(C)C)C(C)C)C(C)C)C(C)C)C(C)C)C(=O)N[C@@H](CCCNC(=N)N)C(=O)N[C@@H](CCCNC(=N)N)C(=O)O	–	CD1 mouse, plasma	intravenous, 15 mg/kg, 24 h, [14C]-labelled compound	–	creatinine	< 0.2 mg/dL
CCc1cnc(NC(=O)c2cc(S(=O)(=O)N3CCOCC3)ccc2N(C)C2CCCC2)s1	–	mouse, serum	10 mg/kg, 3 doses	–	Creatinine	0.2 mg/dL
Cc1cc(-c2ccc(C(=O)[C@@H]3CCCC[C@H]3C(=O)Nc3cnn4c3C(=O)NCC4)cc2)[nH]n1	–	human, urine	oral, 200 mg, 72-96 h	relative to: dose	radioactivity recovery per interval	0.09% and 0.02% and 0.03% and 0.05%
CC[C@H](C)[C@@H](C(=O)N[C@@H](CC(C)C)C(=O)N[C@@H](CO)C(=O)N[C@@H](CO)C(=O)N[C@H](C(=O)N[C@@H](CCC(=O)O)C(=O)N[C@H](C(=O)NCC(=O)N[C@@H](CO)C(=O)N[C@@H](CC(N)=O)C(=O)N[C@H](C(=O)N1C[C@H](O)C[C@H]1C(N)=O)[C@@H](C)O)C(C)C)[C@@H](C)O)N(C)C(=O)[C@H](C)NC(=O)CN(C)C(=O)[C@H](Cc1ccccc1)NC(=O)[C@H](CO)NC(=O)[C@H](CO)NC(=O)[C@H](CCCNC(=N)N)NC(=O)[C@H](CCC(N)=O)NC(=O)[C@H](CC(C)C)NC(=O)[C@H](Cc1ccccc1)NC(=O)[C@H](CCCC(=O)O)NC(=O)[C@H](C)NC(=O)[C@H](CC(C)C)NC(=O)[C@H](CCCNC(=N)N)NC(=O)[C@H](CCC(=O)O)NC(=O)[C@@H](NC(=O)[C@H](C)NC(=O)[C@@H]1CCCCNC(=O)C[C@H](NC(=O)[C@H](CCCNC(=N)N)NC(=O)CC[C@H](NC(=O)CCCCCCCCCCCCCCCCCCC(=O)O)C(=O)O)C(=O)NCC(=O)N[C@@H]([C@@H](C)O)C(=O)N[C@@H](C)C(=O)N[C@@H]([C@@H](C)O)C(=O)N1)[C@@H](C)O	SEC	formulation, histidine buffer, mannitol, NaCl	1 weeks, pH 6.1, 40 °C	–	covalent oligomers	≤ 0.2%
C=CC(=O)Nc1cc(Nc2nccc(-c3cn(C)c4ccccc34)n2)c(OC)cc1N(C)CCNC	–	human, plasma	10 d, room temperature, high QC level	–	remaining compound	37.9%
[11CH3]N1CCC(NC(=O)c2cc(-c3c(O)cc(O)cc3Oc3ccc([N+](=O)[O-])cc3)on2)CC1	–	Wistar rat, female, healthy, lungs	intravenous, 18.5 MBq, 60 min	–	SUV	1 ± 0.1
Nc1ccc(-c2cc(Cl)c(Cl)c3[nH]c4c(c23)CN(C(=O)CO)CC4)cn1	–	C57BL/6 mice, whole blood	intravenous, 0.5 mg/kg	–	blood clearance	36 mL/min/kg
CC(C)(O)c1ncc([S@](N)(=O)=NC(=O)Nc2c3c(cc4c2CCC4)CCC3)s1	–	healthy human	oral, 100 mg single dose, capsule formulation	–	total adverse events	100%
O=C(Nc1ccc(C(F)F)cc1)[C@H](CC1CCCCC1)Nc1nn2c(=O)ccnc2s1	–	Caco-2	5 µM, 2 h, pH 7.4	–	efflux ratio	18
O=C(Nc1cnccc1-c1ccc([18F])nc1)c1ccnc(NC(=O)C2CC2)c1	–	FVB/NJ mice, both sexes, liver	intravenous, 15 min, median, no P-gp inhibitor	–	SUV	8.77
Cc1nc(N)nc2c1C(=O)N[C@@H](c1ccc(F)cc1-c1cccc(O[11CH3])n1)C2	ex vivo biodistribution	mice, MDA-MB-231 subcutaneous xenograft, heart	60 min post-injection, baseline, vehicle pre-treatment	–	SUV	1.6 ± 0.1
C#CCOCCOCCOCCOCCn1cc(C(ONC(=O)/C=C/C(C)=C/C2(C)Oc3cc(N(C)C)ccc3C2=O)(c2ccc(C)cc2)c2ccc(C)cc2)nn1 (stereo not shown)	HPLC	aqueous buffer, 20% acetonitrile	concentration not given, 376 min, pH 3	relative to: initial prodrug amount	release from prodrug hydrolysis	25.2%
CN1CCCNC(=O)c2cccc(c2)C(=O)NCCCN(C)CCCNc2cccc3c2C(=O)c2cccc(c2C3=O)NCCC1	–	mouse xenograft model	dose not given, day 0	–	body weight	29 g and 25 g
C=CC(=O)N1CCCC(n2c(=O)c3ncccc3n(Cc3ccc(Oc4ccccc4)cc3)c2=O)C1 (stereo not shown)	metabolic stability	male beagle dog, hepatocytes	1 µM, 30 min	–	compound remaining	67%
[2H]C([2H])(N)C([2H])([2H])NC(=O)c1cc(C2CC2)nc2c1cnn2C(C)C	metabolic stability	mouse, liver microsomes	–	–	scaled CLint	< 38 mL/min/kg
CN(O)C(=O)CCC(=O)NCCCN(CCCCN(CCCNC(=O)CCC(=O)N(C)O)C(=O)CCC(=O)N(C)O)C(=O)CCC(=O)N(C)O.[89Zr]	radio-TLC	aqueous buffer	7 d, pH 5, 37 °C, 89Zr-labelled complex, added: DTPA 1000-fold excess	–	intact complex	80.8 ± 1.8%
COc1ccc2c(c1)CCn1c[n+]3c(c1-2)-c1ccc(OC)cc1CC3	–	female NSG mice, blood	6 mg/kg, day 14, 5 days per week	–	Eosinophils	7.16 ± 6.64%
CCCCN1C(=O)c2cccc3c(NCCCCCCN4CCOCC4)ccc(c23)C1=O	–	water	pH 6.0	–	fluorescence lifetime	4.2 ns
Cc1c(Cc2ccc(F)c(OC(C)C(=O)O)c2)c2ccc(C(=O)NC(C)c3ccc(C(C)(C)C)cc3)cc2n1CC1CCC1 (stereo not shown)	–	human liver microsomes	1 µM, added: microsomes 1 mg/mL	–	half-life	> 1 h
O=C([O-])CN1CCN(CC(=O)[O-])CCN(CC(CCCc2ccccc2[N+](=O)[O-])N(CC(=O)[O-])CC(=O)[O-])CC1.[177Lu+3] (stereo not shown)	TLC	human serum	37 h, pH 7, 37 °C	–	intact radiolabelled complex	99.8 ± 0.1%
COc1cccc(OC)c1-c1cc(C(=O)NC2(C(=O)O)C3CC4CC(C3)CC2C4)nn1-c1ccc(C(=O)N(C)CCCN(C)C(=O)[C@H](CCCCNC(=O)[C@H](CC(C)C)NC(=O)C2OC2C(=O)O)NC(=O)CN2CCN(CC(=O)[O-])CCN(CC(=O)[O-])CCN(CC(=O)[O-])CC2)cc1C(C)C.[177Lu+3] (mixture of isomers)	–	mouse, HT-29 xenograft, brain	4 h post injection	–	tissue uptake	0.05 %ID/g
